{"data": "Experimental data of several laboratories", "note": "Numbered parts are unrelated; each lists some results of a single study.", "chain of UniProt Q00537 (whole entry, looked up)": "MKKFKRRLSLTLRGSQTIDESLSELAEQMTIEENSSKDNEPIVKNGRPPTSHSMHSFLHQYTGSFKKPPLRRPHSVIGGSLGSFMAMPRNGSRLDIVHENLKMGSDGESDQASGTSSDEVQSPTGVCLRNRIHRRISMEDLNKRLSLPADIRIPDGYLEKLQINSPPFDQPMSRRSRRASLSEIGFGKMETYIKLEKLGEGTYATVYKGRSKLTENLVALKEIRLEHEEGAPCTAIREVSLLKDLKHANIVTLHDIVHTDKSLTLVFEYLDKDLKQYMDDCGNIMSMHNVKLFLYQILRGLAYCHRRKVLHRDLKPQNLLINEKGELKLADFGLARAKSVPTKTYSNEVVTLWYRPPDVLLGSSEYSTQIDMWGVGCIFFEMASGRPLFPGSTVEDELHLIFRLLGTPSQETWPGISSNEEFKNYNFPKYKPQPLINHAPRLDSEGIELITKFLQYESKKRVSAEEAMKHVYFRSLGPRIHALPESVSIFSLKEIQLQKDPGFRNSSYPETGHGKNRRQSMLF", "chain of UniProt Q92630 (whole entry, looked up)": "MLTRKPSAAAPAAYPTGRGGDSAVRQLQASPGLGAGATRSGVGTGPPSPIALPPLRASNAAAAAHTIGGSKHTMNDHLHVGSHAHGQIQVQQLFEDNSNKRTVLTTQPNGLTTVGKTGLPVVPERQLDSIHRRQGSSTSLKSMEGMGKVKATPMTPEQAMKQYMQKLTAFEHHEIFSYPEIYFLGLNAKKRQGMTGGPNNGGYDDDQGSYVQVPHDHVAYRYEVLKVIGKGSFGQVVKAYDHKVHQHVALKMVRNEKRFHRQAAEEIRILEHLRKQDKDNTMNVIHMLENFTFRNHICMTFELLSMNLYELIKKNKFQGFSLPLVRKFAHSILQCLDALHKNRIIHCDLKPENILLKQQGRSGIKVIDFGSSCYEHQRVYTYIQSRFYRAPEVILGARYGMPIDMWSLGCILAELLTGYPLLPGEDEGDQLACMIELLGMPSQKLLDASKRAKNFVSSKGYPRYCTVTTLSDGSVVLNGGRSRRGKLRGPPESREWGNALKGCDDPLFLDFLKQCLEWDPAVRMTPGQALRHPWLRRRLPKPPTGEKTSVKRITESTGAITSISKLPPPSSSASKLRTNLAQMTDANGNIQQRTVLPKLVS", "chain of UniProt P10721 (whole entry, unmodified, looked up)": "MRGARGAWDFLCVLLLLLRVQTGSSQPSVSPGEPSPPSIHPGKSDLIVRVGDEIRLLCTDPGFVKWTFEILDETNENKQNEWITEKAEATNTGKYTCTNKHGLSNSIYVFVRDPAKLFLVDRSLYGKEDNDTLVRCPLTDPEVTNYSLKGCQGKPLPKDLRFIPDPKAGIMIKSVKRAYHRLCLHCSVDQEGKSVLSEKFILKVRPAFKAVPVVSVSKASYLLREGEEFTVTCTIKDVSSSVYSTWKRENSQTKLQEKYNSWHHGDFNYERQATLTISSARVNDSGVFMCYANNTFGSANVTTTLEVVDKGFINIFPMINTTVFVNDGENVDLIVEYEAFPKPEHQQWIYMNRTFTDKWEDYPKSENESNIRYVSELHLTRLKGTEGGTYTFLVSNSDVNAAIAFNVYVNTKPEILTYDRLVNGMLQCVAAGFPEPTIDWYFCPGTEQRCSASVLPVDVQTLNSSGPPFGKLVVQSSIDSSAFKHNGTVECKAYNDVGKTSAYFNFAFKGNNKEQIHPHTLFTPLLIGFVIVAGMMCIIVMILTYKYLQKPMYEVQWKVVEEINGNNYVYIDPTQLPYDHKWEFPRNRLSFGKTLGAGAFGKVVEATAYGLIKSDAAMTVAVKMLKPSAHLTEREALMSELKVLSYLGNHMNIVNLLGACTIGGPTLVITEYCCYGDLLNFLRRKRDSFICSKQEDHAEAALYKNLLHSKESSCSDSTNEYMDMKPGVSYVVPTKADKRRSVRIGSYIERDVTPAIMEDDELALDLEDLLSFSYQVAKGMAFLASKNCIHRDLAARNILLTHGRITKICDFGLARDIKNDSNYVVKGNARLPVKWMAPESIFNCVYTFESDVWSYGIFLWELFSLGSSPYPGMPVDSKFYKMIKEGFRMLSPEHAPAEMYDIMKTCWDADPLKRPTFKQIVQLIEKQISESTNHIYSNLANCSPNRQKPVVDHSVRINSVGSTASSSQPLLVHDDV", "chain of UniProt P42336 (whole entry, unmodified, looked up)": "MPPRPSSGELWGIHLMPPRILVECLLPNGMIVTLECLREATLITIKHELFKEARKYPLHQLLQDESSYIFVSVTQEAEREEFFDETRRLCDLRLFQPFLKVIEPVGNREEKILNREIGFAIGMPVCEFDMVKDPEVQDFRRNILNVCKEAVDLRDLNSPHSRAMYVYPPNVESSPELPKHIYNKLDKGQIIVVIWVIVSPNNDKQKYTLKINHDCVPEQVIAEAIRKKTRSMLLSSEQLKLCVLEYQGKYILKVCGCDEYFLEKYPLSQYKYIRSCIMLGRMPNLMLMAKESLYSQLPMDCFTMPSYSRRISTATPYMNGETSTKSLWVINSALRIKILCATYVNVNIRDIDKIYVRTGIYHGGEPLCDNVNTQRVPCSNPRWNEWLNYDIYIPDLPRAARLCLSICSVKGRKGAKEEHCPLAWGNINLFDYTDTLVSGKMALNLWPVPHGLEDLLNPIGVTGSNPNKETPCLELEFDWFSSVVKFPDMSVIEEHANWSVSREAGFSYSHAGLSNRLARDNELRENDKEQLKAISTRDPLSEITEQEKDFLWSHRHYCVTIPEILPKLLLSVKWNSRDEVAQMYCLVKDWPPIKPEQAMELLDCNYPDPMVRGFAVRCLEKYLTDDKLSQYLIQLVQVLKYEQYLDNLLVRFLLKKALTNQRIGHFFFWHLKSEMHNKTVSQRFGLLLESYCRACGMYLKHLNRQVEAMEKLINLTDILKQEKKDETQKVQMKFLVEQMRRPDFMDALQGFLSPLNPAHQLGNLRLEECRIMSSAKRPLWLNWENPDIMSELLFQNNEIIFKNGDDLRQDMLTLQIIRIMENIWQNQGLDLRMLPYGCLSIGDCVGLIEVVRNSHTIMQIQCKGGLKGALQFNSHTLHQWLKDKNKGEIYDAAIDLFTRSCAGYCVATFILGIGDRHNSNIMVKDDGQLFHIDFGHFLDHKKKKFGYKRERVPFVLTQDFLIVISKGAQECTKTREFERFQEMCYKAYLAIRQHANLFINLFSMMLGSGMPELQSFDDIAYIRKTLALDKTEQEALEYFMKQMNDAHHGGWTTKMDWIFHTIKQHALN", "chain of UniProt P07949 (whole entry, looked up)": "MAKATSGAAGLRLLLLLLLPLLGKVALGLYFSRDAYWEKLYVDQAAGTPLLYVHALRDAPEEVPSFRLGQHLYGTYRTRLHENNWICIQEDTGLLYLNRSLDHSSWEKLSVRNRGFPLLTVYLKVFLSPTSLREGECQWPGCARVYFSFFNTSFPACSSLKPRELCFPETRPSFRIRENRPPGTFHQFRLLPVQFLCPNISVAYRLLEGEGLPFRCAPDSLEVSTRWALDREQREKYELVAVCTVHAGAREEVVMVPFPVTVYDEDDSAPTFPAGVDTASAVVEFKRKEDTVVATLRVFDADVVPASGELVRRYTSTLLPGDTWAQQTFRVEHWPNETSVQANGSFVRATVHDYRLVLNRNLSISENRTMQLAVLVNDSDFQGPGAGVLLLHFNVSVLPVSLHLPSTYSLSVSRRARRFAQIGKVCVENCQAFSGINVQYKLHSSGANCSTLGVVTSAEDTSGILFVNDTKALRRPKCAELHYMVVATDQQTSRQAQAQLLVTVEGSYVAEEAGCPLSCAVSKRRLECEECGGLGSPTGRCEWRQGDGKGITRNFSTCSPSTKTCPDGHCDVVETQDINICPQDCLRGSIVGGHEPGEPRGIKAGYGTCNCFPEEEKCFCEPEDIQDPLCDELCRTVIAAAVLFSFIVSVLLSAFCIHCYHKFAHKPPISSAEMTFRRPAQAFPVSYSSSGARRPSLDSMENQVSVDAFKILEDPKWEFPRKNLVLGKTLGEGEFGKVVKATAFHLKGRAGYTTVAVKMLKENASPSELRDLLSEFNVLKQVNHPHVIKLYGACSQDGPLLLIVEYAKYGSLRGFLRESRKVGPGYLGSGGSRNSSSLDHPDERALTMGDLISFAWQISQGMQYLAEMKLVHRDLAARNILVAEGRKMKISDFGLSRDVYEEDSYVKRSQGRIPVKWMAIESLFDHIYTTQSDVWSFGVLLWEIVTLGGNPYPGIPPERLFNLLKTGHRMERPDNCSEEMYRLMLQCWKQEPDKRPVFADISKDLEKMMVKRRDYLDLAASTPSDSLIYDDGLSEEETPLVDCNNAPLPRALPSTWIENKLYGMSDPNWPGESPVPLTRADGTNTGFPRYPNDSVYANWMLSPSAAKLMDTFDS", "chain of UniProt Q09013 (whole entry, looked up)": "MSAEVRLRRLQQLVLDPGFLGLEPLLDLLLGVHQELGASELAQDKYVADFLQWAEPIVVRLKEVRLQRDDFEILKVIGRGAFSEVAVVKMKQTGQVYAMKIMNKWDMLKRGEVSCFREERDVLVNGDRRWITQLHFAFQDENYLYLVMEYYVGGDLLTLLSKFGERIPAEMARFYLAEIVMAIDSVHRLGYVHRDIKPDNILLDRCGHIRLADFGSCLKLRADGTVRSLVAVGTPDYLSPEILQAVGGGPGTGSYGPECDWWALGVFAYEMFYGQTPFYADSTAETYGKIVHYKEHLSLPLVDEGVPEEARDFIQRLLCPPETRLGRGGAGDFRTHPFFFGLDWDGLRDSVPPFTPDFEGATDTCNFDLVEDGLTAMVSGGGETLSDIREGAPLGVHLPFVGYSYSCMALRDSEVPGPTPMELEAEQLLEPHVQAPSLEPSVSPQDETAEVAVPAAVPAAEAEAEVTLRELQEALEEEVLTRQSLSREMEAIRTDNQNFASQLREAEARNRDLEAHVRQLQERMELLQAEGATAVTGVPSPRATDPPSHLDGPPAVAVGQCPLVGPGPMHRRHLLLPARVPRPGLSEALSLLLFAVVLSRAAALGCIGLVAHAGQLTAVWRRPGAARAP"}
{"data": "Set 1", "SMILES": "Fc1ccc(-c2nc3n(c2-c2ccncc2)CCS3)cc1", "observed": "enzyme activity", "action": "inhibitor", "concentration": "0.5 µM", "relative to": "control"}
{"target": "Serine/threonine-protein kinase Nek9 (NEK9, Homo sapiens, UniProt Q8TD19)", "remaining activity": "102%"}
{"target": "Calcium/calmodulin-dependent protein kinase type 1G (CAMK1G, Homo sapiens, UniProt Q96NX5)", "remaining activity": "95.2%"}
{"target": "Epidermal growth factor receptor (EGFR, Homo sapiens, UniProt P00533)", "remaining activity": "90.7%"}
{"target": "Mitogen-activated protein kinase 10 (MAPK10, Homo sapiens, UniProt P53779)", "remaining activity": "116%"}
{"target": "Serine/threonine-protein kinase BRSK1 (BRSK1, Homo sapiens, UniProt Q8TDC3)", "remaining activity": "94%"}
{"target": "Serine/threonine-protein kinase D1 (PRKD1, Homo sapiens, UniProt Q15139)", "remaining activity": "90.2%"}
{"target": "Protein-tyrosine kinase 2-beta (PTK2B, Homo sapiens, UniProt Q14289)", "remaining activity": "106%"}
{"target": "Mitogen-activated protein kinase kinase kinase 8 (MAP3K8, Homo sapiens, UniProt P41279)", "remaining activity": "88.1%"}
{"target": "Homeodomain-interacting protein kinase 3 (HIPK3, Homo sapiens, UniProt Q9H422)", "remaining activity": "109%"}
{"target": "Cyclin-dependent kinase 7 (CDK7, Homo sapiens, UniProt P50613)", "remaining activity": "95%"}
{"target": "NT-3 growth factor receptor (NTRK3, Homo sapiens, UniProt Q16288)", "remaining activity": "105%"}
{"target": "Myotonin-protein kinase (DMPK, Homo sapiens, UniProt Q09013)", "remaining activity": "102%"}
{"target": "Rho-associated protein kinase 2 (ROCK2, Homo sapiens, UniProt O75116)", "remaining activity": "99.1%"}
{"target": "Mitogen-activated protein kinase kinase kinase 2 (MAP3K2, Homo sapiens, UniProt Q9Y2U5)", "remaining activity": "99.8%"}
{"target": "Serine/threonine-protein kinase N2 (PKN2, Homo sapiens, UniProt Q16513)", "remaining activity": "96.3%"}
{"target": "Proto-oncogene tyrosine-protein kinase receptor Ret (RET, Homo sapiens, UniProt P07949)", "remaining activity": "99.5%"}
{"target": "Dual specificity tyrosine-phosphorylation-regulated kinase 4 (DYRK4, Homo sapiens, UniProt Q9NR20)", "remaining activity": "106%"}
{"target": "Aurora kinase A (AURKA, Homo sapiens, UniProt O14965)", "remaining activity": "92.1%"}
{"target": "STE20-like serine/threonine-protein kinase (SLK, Homo sapiens, UniProt Q9H2G2)", "remaining activity": "110%"}
{"target": "Casein kinase II subunit alpha' (CSNK2A2, Homo sapiens, UniProt P19784)", "remaining activity": "105%"}
{"target": "G protein-coupled receptor kinase 5 (GRK5, Homo sapiens, UniProt P34947)", "remaining activity": "103%"}
{"target": "Cyclin-dependent kinase 2, with cyclin A (CDK2, Homo sapiens, UniProt P24941)", "remaining activity": "101%"}
{"target": "Calcium/calmodulin-dependent protein kinase type 1D (CAMK1D, Homo sapiens, UniProt Q8IU85)", "remaining activity": "100%"}
{"data": "Set 2", "Compound": "Cn1nc(C(=O)NCc2ccc(C(=O)O)cc2)cc1-c1ccc2[nH]ccc2c1", "observed": "cell-free assay", "method": "competition with immobilised ligand", "concentration": "0.1 µM"}
{"target": "NUAK family SNF1-like kinase 2 (NUAK2, Homo sapiens, UniProt Q9H093)", "remaining binding": "87%"}
{"target": "Homeodomain-interacting protein kinase 2 (HIPK2, Homo sapiens, UniProt Q9H2X6)", "remaining binding": "97%"}
{"target": "Serine/threonine-protein kinase TAO1 (TAOK1, Homo sapiens, UniProt Q7L7X3)", "remaining binding": "91%"}
{"target": "Mitogen-activated protein kinase kinase kinase 19 (MAP3K19, Homo sapiens, UniProt Q56UN5)", "remaining binding": "85%"}
{"target": "Serine/threonine-protein kinase TAO3 (TAOK3, Homo sapiens, UniProt Q9H2K8)", "remaining binding": "83%"}
{"target": "Serine/threonine-protein kinase Chk1 (CHEK1, Homo sapiens, UniProt O14757)", "remaining binding": "83%"}
{"target": "Ephrin type-A receptor 5 (EPHA5, Homo sapiens, UniProt P54756)", "remaining binding": "92%"}
{"target": "Tyrosine-protein kinase receptor Tie-1 (TIE1, Homo sapiens, UniProt P35590)", "remaining binding": "93%"}
{"target": "Death-associated protein kinase 3 (DAPK3, Homo sapiens, UniProt O43293)", "remaining binding": "86%"}
{"target": "Dual specificity tyrosine-phosphorylation-regulated kinase 2 (DYRK2, Homo sapiens, UniProt Q92630)", "remaining binding": "100%"}
{"target": "cAMP-dependent protein kinase catalytic subunit PRKX (PRKX, Homo sapiens, UniProt P51817)", "remaining binding": "71%"}
{"target": "Phosphatidylinositol 4,5-bisphosphate 3-kinase catalytic subunit alpha isoform (PIK3CA, Homo sapiens, UniProt P42336, H1047L)", "remaining binding": "100%"}
{"target": "Serine/threonine-protein kinase TNNI3K (TNNI3K, Homo sapiens, UniProt Q59H18)", "remaining binding": "100%"}
{"target": "Mast/stem cell growth factor receptor Kit (KIT, Homo sapiens, UniProt P10721, V559D/V654A)", "remaining binding": "95%"}
{"target": "Cyclin-dependent kinase 2 (CDK2, Homo sapiens, UniProt P24941)", "remaining binding": "91%"}
{"target": "Cyclin-dependent kinase 5 (CDK5, Homo sapiens, UniProt Q00535)", "remaining binding": "90%"}
{"target": "Phosphatidylinositol 4-phosphate 5-kinase type-1 alpha (PIP5K1A, Homo sapiens, UniProt Q99755)", "remaining binding": "63%"}
{"target": "BDNF/NT-3 growth factors receptor (NTRK2, Homo sapiens, UniProt Q16620)", "remaining binding": "92%"}
{"target": "Phosphatidylinositol 3-kinase catalytic subunit type 3 (PIK3C3, Homo sapiens, UniProt Q8NEB9)", "remaining binding": "93%"}
{"target": "Tyrosine-protein kinase ABL1, phosphorylated (ABL1, Homo sapiens, UniProt P00519, M351T)", "remaining binding": "75%"}
{"target": "Receptor-type tyrosine-protein kinase FLT3 (FLT3, Homo sapiens, UniProt P36888, ITD)", "remaining binding": "91%"}
{"target": "Cyclin-dependent kinase 17 (CDK17, Homo sapiens, UniProt Q00537)", "remaining binding": "77%"}
{"target": "Mitogen-activated protein kinase 7 (MAPK7, Homo sapiens, UniProt Q13164)", "remaining binding": "87%"}
{"target": "Macrophage-stimulating protein receptor (MST1R, Homo sapiens, UniProt Q04912)", "remaining binding": "100%"}
{"target": "Phosphatidylinositol 5-phosphate 4-kinase type-2 beta (PIP4K2B, Homo sapiens, UniProt P78356)", "remaining binding": "93%"}
{"data": "Set 3", "target": "Diamine acetyltransferase 1 (Homo sapiens, UniProt P21673)", "action": "inhibitor", "concentration": "10 µM", "relative to": "control", "Construct (P21673 1-171)": "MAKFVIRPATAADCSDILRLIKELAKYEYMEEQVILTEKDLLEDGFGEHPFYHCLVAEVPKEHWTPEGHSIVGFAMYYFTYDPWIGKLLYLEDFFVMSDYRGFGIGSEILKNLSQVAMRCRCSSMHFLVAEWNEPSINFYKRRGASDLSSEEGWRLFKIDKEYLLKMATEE"}
{"Structure (SMILES)": "COc1ccc(-c2coc3cc(O)c(OC)c(O)c3c2=O)cc1", "remaining activity [%]": 105}
{"Structure (SMILES)": "COc1cc(/C=C/CO)ccc1O", "remaining activity [%]": 110}
{"Structure (SMILES)": "COc1ccccc1C=CC=O", "remaining activity [%]": 91.5}
{"Structure (SMILES)": "O=C(O)[C@@H]1C[C@@H](O)CN1", "remaining activity [%]": 94.6}
{"Structure (SMILES)": "CCCCCCCCCCCCCCCCCCCCCC(=O)O", "remaining activity [%]": 94.1}
{"Structure (SMILES)": "O=C(/C=C/c1ccc(O)c(O)c1)OC[C@H]1O[C@@H](OCCc2ccc(O)c(O)c2)[C@H](O)[C@@H](O)[C@@H]1O", "remaining activity [%]": 105}
{"Structure (SMILES)": "CCCCC/C=C/C/C=C/CCCCCCCCCC(=O)O", "remaining activity [%]": 97.6}
{"Structure (SMILES)": "O=C(OC[C@H]1O[C@@H](OC(=O)c2cc(O)c(O)c(O)c2)[C@H](OC(=O)c2cc(O)c(O)c(O)c2)[C@@H](OC(=O)c2cc(O)c(O)c(O)c2)[C@@H]1OC(=O)c1cc(O)c(O)c(O)c1)c1cc(O)c(O)c(O)c1", "remaining activity [%]": 102}
{"Structure (SMILES)": "COc1c(/C=C/C(=O)c2ccc(O)c(CC=C(C)C)c2)ccc(O)c1O", "remaining activity [%]": 89.8}
{"Structure (SMILES)": "O[C@]12CO[C@H](c3ccc4c(c3)OCO4)[C@H]1CO[C@@H]2c1ccc2c(c1)OCO2", "remaining activity [%]": 84.2}
{"Structure (SMILES)": "COc1ccccc1O", "remaining activity [%]": 85.8}
{"Structure (SMILES)": "COc1ccc(-c2coc3cc(O)ccc3c2=O)cc1", "remaining activity [%]": 88.5}
{"Structure (SMILES)": "CCCCCC/C=C\\CCCCCCCC(=O)OC", "remaining activity [%]": 101}
{"Structure (SMILES)": "CCCCC/C=C/C(=O)O", "remaining activity [%]": 91.5}
{"Structure (SMILES)": "COCCc1ccc(O)cc1", "remaining activity [%]": 95.9}
{"Structure (SMILES)": "CC(C)=CCC[C@@H](C)[C@H]1CC[C@@]2(C)C3=C(CC[C@]12C)[C@@]1(C)CC[C@H](O)C(C)(C)[C@@H]1CC3", "remaining activity [%]": 97.3}
{"Structure (SMILES)": "CC(=O)CCc1ccc(OC(C)=O)cc1", "remaining activity [%]": 88}
{"Structure (SMILES)": "C[C@@H]1O[C@@H](O[C@@H]2[C@@H](O)[C@H](OCCc3ccc(O)c(O)c3)O[C@H](CO)[C@H]2OC(=O)/C=C/c2ccc(O)c(O)c2)[C@H](O)[C@H](O)[C@H]1O", "remaining activity [%]": 102}
{"Structure (SMILES)": "CC(=O)/C=C/C1=C(C)CCCC1(C)C", "remaining activity [%]": 105}
{"data": "Set 4", "cell line": "HaCaT", "concentration": "100 µM", "time": "60 h"}
{"SMILES": "Cc1cccn2c(=O)c(-c3nnn[nH]3)cnc12", "viability [%]": 118}
{"SMILES": "COc1ccnc(C[S+]([O-])c2nc3ccc(OC(F)F)cc3[nH]2)c1OC (centres unmarked)", "viability [%]": 88.3}
{"SMILES": "CCCc1nc2c(C)cc(-c3nc4ccccc4n3C)cc2n1Cc1ccc(-c2ccccc2C(=O)O)cc1", "viability [%]": 67.9}
{"SMILES": "CC(=O)OCC(=O)[C@@]1(O)CC[C@H]2[C@@H]3CCC4=CC(=O)CC[C@]4(C)[C@H]3[C@@H](O)C[C@@]21C", "viability [%]": 127}
{"SMILES": "O=c1[nH]c(=O)n(C2CCCO2)cc1F (centres unmarked)", "viability [%]": 91.1}
{"SMILES": "Cc1cnc(C(=O)O)c[n+]1[O-]", "viability [%]": 85.2}
{"SMILES": "CC(C(=O)O)c1ccc2c(c1)Cc1cccnc1O2 (centres unmarked)", "viability [%]": 57.1}
{"SMILES": "CN(C)CCOC(=O)COc1ccc(Cl)cc1", "viability [%]": 129}
{"SMILES": "NC(=O)c1ccccc1O", "viability [%]": 115}
{"SMILES": "O=C(O)[C@@H](S)[C@@H](S)C(=O)O", "viability [%]": 162}
{"note": "Repeated from above (set 1):"}
{"target": "Mitogen-activated protein kinase kinase kinase 2 (MAP3K2, Homo sapiens, UniProt Q9Y2U5)", "remaining activity": "99.8%"}
{"target": "Serine/threonine-protein kinase N2 (PKN2, Homo sapiens, UniProt Q16513)", "remaining activity": "96.3%"}
{"target": "Proto-oncogene tyrosine-protein kinase receptor Ret (RET, Homo sapiens, UniProt P07949)", "remaining activity": "99.5%"}
{"target": "Dual specificity tyrosine-phosphorylation-regulated kinase 4 (DYRK4, Homo sapiens, UniProt Q9NR20)", "remaining activity": "106%"}
{"target": "Aurora kinase A (AURKA, Homo sapiens, UniProt O14965)", "remaining activity": "92.1%"}
{"target": "STE20-like serine/threonine-protein kinase (SLK, Homo sapiens, UniProt Q9H2G2)", "remaining activity": "110%"}
{"target": "Casein kinase II subunit alpha' (CSNK2A2, Homo sapiens, UniProt P19784)", "remaining activity": "105%"}
{"target": "G protein-coupled receptor kinase 5 (GRK5, Homo sapiens, UniProt P34947)", "remaining activity": "103%"}
{"target": "Cyclin-dependent kinase 2, with cyclin A (CDK2, Homo sapiens, UniProt P24941)", "remaining activity": "101%"}
{"target": "Calcium/calmodulin-dependent protein kinase type 1D (CAMK1D, Homo sapiens, UniProt Q8IU85)", "remaining activity": "100%"}
